Assay results gathered from unrelated publications.
Protocols differ between the studies behind these lines. ± marks the error that the study gave.
Organism: Plasmodium falciparum

CC1=C(Cn2cc(COC3COC3)nn2)C(=O)c2ccccc2C1=O — IC50 (parasite growth, [3H]hypoxanthine incorporation; NF54; 72 h): > 10000 nM
O[C@@H](CNCCCC(F)(F)F)c1cc(Cl)cc2c1-c1ccc(Cl)cc1C2 — IC50 (3D7; 48 h): 4.4 ± 0.2 nM
CC1=C(Cc2cn(CCN3CCC(=O)CC3)nn2)C(=O)c2ccccc2C1=O — IC50 (parasite growth, [3H]hypoxanthine incorporation; NF54; 72 h): 2070 nM
CCN(CC)CCCC(C)Nc1ccnc2cc(Cl)ccc12 (stereo not drawn) — IC50 (asexual blood-stage growth, [3H]hypoxanthine uptake; 3D7; 72 h): 10 nM
C[C@H]1[C@@H](O)O[C@@H]2O[C@@]3(C)CC[C@H]4[C@H](C)CC[C@@H]1[C@@]24OO3 — IC50 (3D7, supernatant of treated uninfected erythrocytes; 72 h, 500 nM preincubated 0.16 h): 6.7 ± 2.5 nM
CC1=C(Cn2cc(C(C)(C)O)nn2)C(=O)c2ccccc2C1=O — IC50 (parasite growth, [3H]hypoxanthine incorporation; NF54; 72 h): > 10000 nM
N=C(CC(O)c1ccnc2c1ccc1ccccc12)Nc1ccc(F)cc1 (stereo not drawn) — IC50 (parasite growth, HRP2 ELISA; 3D7, asexual blood stages; 3 days): 207 ± 66.4 nM
CCC1=C(CC)/C(=C/NC23CC4CC(CC(C4)C2)C3)N=C1c1cc2ccccc2[nH]1 — IC50 (parasite growth, SYBR Green fluorescence; Dd2, multidrug-resistant; 72 h): 59.3 nM
O=C(O)c1ccc(-n2nc(-c3ccccc3O)nc2-c2ccccc2O)cc1 — IC50 (parasite growth, inhibitor, SYBR Green I; 3D7): 38400 nM
COc1cc(C)c(-c2ccc(O)c3c2C[C@@H](C)N[C@@H]3C)c2cccc(O)c12 (single isomer, unassigned) — IC50 (asexual parasite proliferation, SYBR Green I fluorescence; HB3): 30.3 ± 3.8 nM
CC1CCc2c([nH]c3ccccc23)C2(N1)C(=O)Nc1ccc(Cl)cc12 (stereo not drawn) — IC50 (parasite growth, [3H]hypoxanthine incorporation; NF54): 291 nM
CCCCCNCC(O)c1cc(Cl)cc2c1-c1ccc(Cl)cc1C2 (racemic) — IC50 (3D7; 48 h): 3.6 ± 0.5 nM
N=C(N)NCCCCC(=O)Nc1cc(C(F)(F)F)cc(NC(=O)c2cc(C(=O)Nc3cc(C(F)(F)F)cc(NC(=O)CCCCNC(=N)N)c3O[C@@H]3CCNC3)ncn2)c1O[C@@H]1CCNC1 — IC50 (parasite growth, stage-specific treatment; 12 h, early to late trophozoite stage): 2060 ± 90 nM
CC1=C(Cc2cn(CCN3CCN(C(=O)OC(C)(C)C)CC3)nn2)C(=O)c2ccccc2C1=O — IC50 (parasite growth, [3H]hypoxanthine incorporation; NF54; 72 h): 465 nM
COC1=CC(c2ccc[nH]2)=N/C1=C\c1[nH]c(-c2ccccc2)cc1-c1ccccc1 — IC50 (parasite growth, SYBR Green fluorescence; Dd2 (multidrug-resistant), asexual blood stage; 72 h): 11.8 nM
COc1ncnc(NS(=O)(=O)c2ccc(N)cc2)c1OC — IC50 (cell growth; erythrocytes, Dd2; low-folate medium): 517000 ± 206000 nM
C[C@H](O)C(=O)CCCCCCC(=O)Nc1ccccc1 — IC50 ([3H]-hypoxanthine incorporation): > 100000 nM
COC1=CC(c2ccc[nH]2)=N/C1=C\c1[nH]c(-c2ccc(OC)cc2)cc1-c1ccc(OC)cc1 — IC50 (parasite growth, SYBR Green fluorescence; Tm90-C2B (atovaquone-resistant), asexual blood stage; 72 h): 36.9 nM
CCCN(CCc1cccs1)[C@H]1CCc2c(O)cccc2C1 — IC50 (SYBR Green I; 3D7; 48 h, ring stage): > 10000 nM
Nc1ccc(S(=O)(=O)c2ccc(N)cc2)cc1 — IC50 (cell growth; erythrocytes, 3D7; low-folate medium): 38000 ± 630 nM
CCOC1=CC(c2ccc[nH]2)=N/C1=C\c1cc(Cc2ccc(Cl)cc2)c(C)[nH]1 — IC50 (parasite growth, SYBR Green fluorescence; Tm90-C2B (atovaquone-resistant), asexual blood stage; 72 h): 7.07 nM
CCN(CC)CCCC(C)Nc1ccnc2cc(Cl)ccc12 (stereo not drawn) — IC50 (parasite growth, LDH; 3D7): 22 nM
CC1=C(Cn2cc(CN(Cc3ccccc3)Cc3ccccc3)nn2)C(=O)c2ccccc2C1=O — IC50 (parasite growth, [3H]hypoxanthine incorporation; NF54; 72 h): 1910 nM
N=C(N)c1ccc(OCCCCCOc2ccc(C(=N)N)cc2)cc1 — IC50 (parasite growth, inhibitor, SYBR Green I; 3D7): 3.2 nM
CCCCCCNCC(O)c1cc(Cl)cc2c1-c1ccc(Cl)cc1C2 (racemic) — IC50 (3D7; 48 h): 4.1 ± 0.1 nM
CC1(C)N=C(N)N=C(N)N1c1ccc(Cl)cc1 — IC50 (growth; 3D7; 96 h): 9 ± 2 nM
CCN(CC)CCCC(C)Nc1ccnc2cc(Cl)ccc12 (stereo not drawn) — IC50 (asexual parasite growth, SYBR Green I; clinical isolate SB_04, Malawi): 5.9 ± 0.49 nM
CCCCNC[C@@H](O)c1cc(Cl)cc2c1-c1ccc(Cl)cc1C2 — IC50 (3D7; 48 h): 23.3 ± 3.3 nM
Cc1[nH]c(/C=C2\N=C(c3ccc[nH]3)C=C2OCc2ccccc2)cc1Cc1ccc(OC(F)(F)F)cc1 — IC50 (parasite growth, SYBR Green fluorescence; Dd2 (multidrug-resistant), asexual blood stage; 72 h): 10.4 nM
C[C@@H](c1cc(Cl)cc(Cl)c1)N(C)c1ncc2c(N)nc(N)nc2n1 — IC50 (parasite growth, inhibitor, SYBR Green I; 3D7): 3960 nM
COC1=C(OC)/C(=C/c2[nH]c(Cc3ccc(Cl)cc3)cc2Cc2ccc(Cl)cc2)N=C1c1ccc[nH]1 — IC50 (parasite growth, SYBR Green fluorescence; Tm90-C2B (atovaquone-resistant), asexual blood stage; 72 h): > 2500 nM
CC(C)(C)NC(=O)[C@@H]1CN(Cc2cnc3occc3c2)CCN1C[C@@H](O)C[C@@H](Cc1ccccc1)C(=O)N[C@H]1c2ccccc2C[C@H]1O — IC50 (parasite growth, stage-specific treatment; 12 h, early to late ring stage): > 10000 nM
COc1ccc(C[C@H](NC(=O)[C@H](C)NC(=O)CN2CCOCC2)C(=O)N[C@@H](Cc2ccccc2)C(=O)C2(C)CO2)cc1 (stereo in doubt) — IC50 (parasite growth; Cam WT, artemisinin-sensitive; 72 h, ring stage): 44.6 ± 5.9 nM
CC1=C(Cn2cncn2)C(=O)c2ccccc2C1=O — IC50 (parasite growth, [3H]hypoxanthine incorporation; NF54; 72 h): 7480 nM
COC1=CC(c2ccc[nH]2)=N/C1=C\c1cc(Cc2ccc(OC)cc2)c(-c2ccc(OC)cc2)[nH]1 — IC50 (parasite growth, SYBR Green fluorescence; Dd2 (multidrug-resistant), asexual blood stage; 72 h): 109 nM
COc1cc(CO)c(-c2ccc3c(c2O)[C@@H](C)N[C@H](C)C3)c2cccc(O)c12 — IC50 (asexual parasite proliferation, SYBR Green I fluorescence; K1): 55 ± 11 nM
O=C1C(O)=C([C@H]2CC[C@H](c3ccc(Cl)cc3)CC2)C(=O)c2ccccc21 — IC50 (growth; 3D7; 48 h): 4 ± 1 nM
CC1=C(C)/C(=C/c2cc(-c3ccc(Cl)cc3)c(C)[nH]2)N=C1c1ccc[nH]1 — IC50 (parasite growth, SYBR Green fluorescence; Tm90-C2B (atovaquone-resistant), asexual blood stage; 72 h): 2330 nM
COc1nc2ccc(Br)cc2cc1[C@@H](c1ccccc1)[C@@](O)(CCN(C)C)c1cccc2ccccc12 — IC50 (parasite growth, stage-specific treatment; 12 h, early to late ring stage): 2970 ± 90 nM
COC1=CC(c2ccc[nH]2)=N/C1=C\c1[nH]c(C)cc1Cc1ccc(OC(F)(F)F)cc1 — IC50 (parasite growth, SYBR Green fluorescence; Dd2 (multidrug-resistant), asexual blood stage; 72 h): 1.85 nM
CCc1nc(N)nc(N)c1-c1ccc(Cl)cc1 — IC50 (cell growth; erythrocytes, K1; low-folate medium): 2230 ± 330 nM
O[C@@H](CN[C@H](COCC1CC1)Cc1ccccc1)c1cc(Cl)cc2c1-c1ccc(Cl)cc1C2 — IC50 (3D7; 48 h): 19.1 ± 9.9 nM
CO[C@H]1/C=C/O[C@@]2(C)Oc3c(C)c(O)c4c(O)c(c(/C=N/N5CCN(C)CC5)c(O)c4c3C2=O)NC(=O)/C(C)=C\C=C[C@H](C)[C@H](O)[C@@H](C)[C@@H](O)[C@@H](C)[C@H](OC(C)=O)[C@@H]1C — IC50 (parasite growth, inhibitor, SYBR Green I; 3D7): 2410 nM
CCCCCCCCNC[C@@H](O)c1cc(Cl)cc2c1-c1ccc(Cl)cc1C2 — IC50 (3D7; 48 h): 4.5 ± 0.2 nM
NCCN(C(=O)c1ccc(Cl)cc1Cl)c1ccc(OCc2ccc(Cl)cc2)cc1 — IC50 (parasite growth, inhibitor, SYBR Green I; 3D7): 1560 nM
O=C(CC1NCCCC1O)Cn1cnc2cc(Br)c(Cl)cc2c1=O (stereo not drawn) — IC50 (parasite growth; conditional knockdown control line; 120 h, together with: 3 nM anhydrotetracycline): 0.4 nM
CCCCN(CCCC)CC(O)c1cc(Cl)cc2c1-c1ccc(Cl)cc1/C2=C/c1ccc(Cl)cc1 (stereo not drawn) — IC50 (parasite growth; Plasmodium falciparum 3D7, 3D7; 48 h): 7.3 ± 5.4 nM
N=C(CC(O)c1nc2ccccc2c2ccc(Br)cc12)Nc1ccc(F)cc1 (stereo not drawn) — IC50 (parasite growth, HRP2-ELISA; clinical isolates from Gabon; ex vivo, median): 46 nM

A few entries again:
O=C(O)c1ccc(-n2nc(-c3ccccc3O)nc2-c2ccccc2O)cc1 — IC50 (parasite growth, inhibitor, SYBR Green I; 3D7): 38400 nM
CC1=C(Cc2cn(CCN3CCC(=O)CC3)nn2)C(=O)c2ccccc2C1=O — IC50 (parasite growth, [3H]hypoxanthine incorporation; NF54; 72 h): 2070 nM
COC1=CC(c2ccc[nH]2)=N/C1=C\c1cc(Cc2ccc(OC)cc2)c(-c2ccc(OC)cc2)[nH]1 — IC50 (parasite growth, SYBR Green fluorescence; Dd2 (multidrug-resistant), asexual blood stage; 72 h): 109 nM
C[C@@H](c1cc(Cl)cc(Cl)c1)N(C)c1ncc2c(N)nc(N)nc2n1 — IC50 (parasite growth, inhibitor, SYBR Green I; 3D7): 3960 nM
